Experimental data pooled from the literature.
A part holds a random share of what one study measured.

Study 1
Target: Sal-like protein 4, full length isoform A (SALL4, Homo sapiens, UniProt Q9UJQ4, residues 1-1053)
UniProt Q9UJQ4, sequence (whole entry, looked up): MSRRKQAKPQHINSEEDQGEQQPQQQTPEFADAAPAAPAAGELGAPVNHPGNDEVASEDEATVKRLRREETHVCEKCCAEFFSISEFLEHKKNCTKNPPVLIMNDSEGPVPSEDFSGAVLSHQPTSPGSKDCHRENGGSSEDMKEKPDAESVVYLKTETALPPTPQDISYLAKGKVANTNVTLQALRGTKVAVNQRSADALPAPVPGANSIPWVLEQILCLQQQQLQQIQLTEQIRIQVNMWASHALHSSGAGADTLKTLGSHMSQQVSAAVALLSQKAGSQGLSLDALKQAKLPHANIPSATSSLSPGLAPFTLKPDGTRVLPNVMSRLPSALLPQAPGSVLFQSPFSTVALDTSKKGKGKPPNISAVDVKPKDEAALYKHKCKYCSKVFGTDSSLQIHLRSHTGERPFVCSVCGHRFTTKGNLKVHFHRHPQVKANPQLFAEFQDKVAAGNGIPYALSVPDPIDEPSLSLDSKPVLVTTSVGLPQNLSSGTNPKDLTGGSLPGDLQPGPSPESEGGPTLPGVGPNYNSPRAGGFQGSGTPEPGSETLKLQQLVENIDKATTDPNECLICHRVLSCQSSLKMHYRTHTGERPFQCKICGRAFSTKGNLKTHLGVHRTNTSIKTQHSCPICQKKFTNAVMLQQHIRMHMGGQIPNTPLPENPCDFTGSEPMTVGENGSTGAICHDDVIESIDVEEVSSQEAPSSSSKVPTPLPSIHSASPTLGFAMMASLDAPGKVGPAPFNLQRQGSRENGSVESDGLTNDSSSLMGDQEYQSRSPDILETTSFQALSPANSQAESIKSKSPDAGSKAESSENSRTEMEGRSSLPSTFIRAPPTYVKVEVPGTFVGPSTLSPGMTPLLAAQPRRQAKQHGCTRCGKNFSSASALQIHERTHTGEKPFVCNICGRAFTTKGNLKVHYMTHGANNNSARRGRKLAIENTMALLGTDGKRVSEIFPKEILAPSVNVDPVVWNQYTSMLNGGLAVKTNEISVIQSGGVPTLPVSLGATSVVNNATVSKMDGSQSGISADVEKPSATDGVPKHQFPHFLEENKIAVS
Technique: universal PBM
Molecule type: double-stranded DNA, one strand shown
Matrix: in vitro
Tested at: 600 nM
Notes: 8-mer, flanks averaged, mean of replicates
Direction: higher = stronger binding
Sequence	E-score
CGACTGAA	-0.155
CTAGGCAC	-0.139
AATTATTG	0.443
AAACTCTC	-0.0421
CCCCTGAG	-0.311

Study 2
Target: Ras GTPase-activating protein-binding protein 1, full length (G3BP1, Homo sapiens, UniProt Q13283)
UniProt Q13283, sequence (whole entry, looked up): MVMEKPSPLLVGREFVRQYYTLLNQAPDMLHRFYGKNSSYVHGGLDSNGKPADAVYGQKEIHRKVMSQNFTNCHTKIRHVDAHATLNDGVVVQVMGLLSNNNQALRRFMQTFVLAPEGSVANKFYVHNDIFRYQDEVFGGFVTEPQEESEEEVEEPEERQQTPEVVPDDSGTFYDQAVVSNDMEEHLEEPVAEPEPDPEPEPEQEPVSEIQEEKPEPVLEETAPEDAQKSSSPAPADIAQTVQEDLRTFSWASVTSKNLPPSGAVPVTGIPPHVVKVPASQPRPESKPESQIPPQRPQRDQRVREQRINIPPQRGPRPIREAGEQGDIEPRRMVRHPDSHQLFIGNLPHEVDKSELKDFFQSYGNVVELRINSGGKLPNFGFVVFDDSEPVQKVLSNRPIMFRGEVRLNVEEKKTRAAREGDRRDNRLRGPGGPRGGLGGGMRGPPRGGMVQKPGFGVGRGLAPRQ
Technique: RNA Bind-n-Seq
Molecule type: RNA
Matrix: in vitro
Tested at: 200 nM
Notes: whole 134-nt RNA, ends assumed
Added: 150 mM LiCl
Relative to: input library
Direction: higher = stronger binding
All molecules: 7-deaza-guanosine replaces G
All sequences stand within: GGGAGUUCUACAGUCCGACGAUC … UGGAAUUCUCGGGUGUCAAGG
Sequence	log2 enrichment
CCUGUGCUACACAUCGUAUGUACCGAAUCGGCCCCCCGGGCCCCCCGGGGCCCCCCGGGGAAAGUAUUAUGUUACGCCGUUCGGAUCUGC	-2.08
UCCUGUGCUACACAUCGUAUGUACCGAAUCGGUUUUUUGGGUUUUUUGGUUUUUUGGGGAAAGUAUUAUGUUACGCCGUUCGGAUCUGCA	-0.223
UCCUCAAGUCCUGUGCUACACAUCGUAUGUACCGAAUCGGCGGGCGGCGGGAAAGUAUUAUGUUACGCCGUUCGGAUCUGCACUUCCAGC	1.16
UAACUUUAGAGGAGGAUCUGAUGGAUAUGGCAGUGGACGUGGAUUUGGGGAUGGCUAUUAUGGGUAUGGAGGAGGACCUGGAGGUGGCAA	-0.117
UCCUGUGCUACACAUCGUAUGUACCGAAUCGGGAAAAAGGGUUUUUUUGGGAAAAAGGGAAAGUAUUAUGUUACGCCGUUCGGAUCUGCA	-1.14

Study 3
Target: RNA binding protein fox-1 homolog 2, RRM domain, GST-SBP tag (RBFOX2, Homo sapiens, UniProt O43251-10, residues 100-194)
Technique: RNA Bind-n-Seq
Molecule type: RNA
Matrix: in vitro
Tested at: 365 nM
Notes: natural RNA segment, single round, ends assumed
Relative to: no-protein control
Direction: higher = stronger binding
All sequences stand within: GGGAGUUCUACAGUCCGACGAUC … UGGAAUUCUCGGGUGCCAA
Sequence	RBNS enrichment (R)
GCCUAGAUUCUGAGAUCUUCCCAUUCUAGGCCUACAAGCACUACUUGCUGUAGCUGAGACUUGUCUAGAGUCCUUUGUUUUGCACUUUUGACCCACCCCUUCCUGGAUCA	0.851
GUGGCCAAGCGUCCUUACAGCCAGUGCACAGGACUUUCAGAGACCAAGGCCAGGGUCUGCUGCACUGCUGUUCUGAUAAUAGGUUCUUAACAUUGUAUGUAUAUGUGUUU	1.21
GAUGCCCUCCUGAAACCAUGAGAAGCUUCAGCCUUGCCUCACUGGCUUCCCCAUCUGACCCCACCAGGUACCACACUGUCACCCAGUGUCCUUGAUCUCCUCUUGUUCCC	0.597
CCUAAAAAUGUGGAAAAGCACGCCAAAGCCUUAUUUAAAUAAUAACUAUUAAACUAUUCAAAAAGAAGACUGUUAUUUUAUUUAACACCUUUGUUUUUUAAGAAUGAACA	2.29
CCCUGUGCACCUUUGGGCUGCCCUGGCCCCCACUCUCCCGGGCCGCCCACCACAGGCUCUUAAUGGGGCCGGGUCAGUCCUACAUGUGAGAUGGGUUAGGGCAAGUCUUU	0.546

Mixed results
Molecule	target	assay	system	setting	scale	measurement	result
PhoQ, residues 284 288 289 292 302 303 DDMDFR	PhoP, residues 12 14 15 18 19 AGCRL (Escherichia coli, UniProt P23836)	Sort-seq, refers to: YFP reporter	E. coli	PhoQ-PhoP variant library, added: 10 µM Mg2+	relative to: high Mg2+ state, higher = stronger signaling	fold induction	0.82

For quick reference, copied from above (study 3):
Sequence	RBNS enrichment (R)
GCCUAGAUUCUGAGAUCUUCCCAUUCUAGGCCUACAAGCACUACUUGCUGUAGCUGAGACUUGUCUAGAGUCCUUUGUUUUGCACUUUUGACCCACCCCUUCCUGGAUCA	0.851
